Measured values of several laboratories.
Parts stem from different laboratories: compare values within a part only. Positions count from the first letter of the parent shown.

Study 1
Target: Histone acetyltransferase KAT6A, winged helix 1, GST fusion (KAT6A, Homo sapiens, UniProt Q92794, residues 1-85)
Method: protein binding microarray
Form: double-stranded DNA, one strand shown
Sample: in vitro
Tested at: not given
Notes: 8-mer, flanks averaged, mean of 2 arrays, mostly near background
Reference: not given
Reading: higher = stronger binding
Construct (chain): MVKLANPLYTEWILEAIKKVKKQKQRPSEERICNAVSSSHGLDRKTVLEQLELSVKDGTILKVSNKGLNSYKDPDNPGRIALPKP
Oligonucleotide	E-score
GGGACAAC	0.00907
ACCCGTAA	0.334
ACGTTGTA	-0.187
GTGTCGCA	0.135
GGACCGCC	0.318
ATCGACGG	0.325
AAAGTCCC	-0.0668
GGTACGAC	0.0158
AACCCCTA	-0.0967
CCAGAGCA	-0.223
AAAACAAA	-0.115
AATCAAGT	-0.128
AACTTAGA	-0.278
CCGTCGAG	0.119
AACTGGAC	-0.146
AAATTGTG	-0.371
CAGGTGAA	-0.234
ATGTCCGG	0.183
CATAGGCG	0.2
GAACTCGC	0.0236
GCGAGACC	0.0546
AAGGGATC	-0.0174

Study 2
Target: Interferon regulatory factor 7, full length, phosphomimetic (IRF7, Homo sapiens, UniProt Q92985, residues 1-503, S101K/S471D/S472D/S475D/S476D/S477D/S483D/S484D/S487D)
Method: protein-binding microarray
Form: double-stranded DNA, one strand shown
Sample: in vitro
Tested at: 250 nM
Notes: 60-bp whole probe
Together with: salmon DNA 0.4 mg/ml
Reference: random background probes
Reading: higher = stronger binding
Shared flanks, not repeated: GCCTAGCAC … GTCTTGATTCGCTTGACGCTGCTG
Target sequence (chain): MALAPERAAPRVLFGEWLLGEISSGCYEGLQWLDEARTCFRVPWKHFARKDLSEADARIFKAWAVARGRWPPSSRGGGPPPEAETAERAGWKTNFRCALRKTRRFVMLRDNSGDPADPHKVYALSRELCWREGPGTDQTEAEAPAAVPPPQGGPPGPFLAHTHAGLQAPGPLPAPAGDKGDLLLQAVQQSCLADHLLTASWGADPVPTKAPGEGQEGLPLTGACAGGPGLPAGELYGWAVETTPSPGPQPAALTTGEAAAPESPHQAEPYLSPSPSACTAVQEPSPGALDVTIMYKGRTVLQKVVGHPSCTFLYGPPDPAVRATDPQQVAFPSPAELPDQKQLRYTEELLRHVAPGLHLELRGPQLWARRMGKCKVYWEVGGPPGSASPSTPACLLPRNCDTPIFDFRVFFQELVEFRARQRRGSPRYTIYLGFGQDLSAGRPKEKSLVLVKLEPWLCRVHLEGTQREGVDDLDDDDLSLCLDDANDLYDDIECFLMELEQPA
Oligonucleotide	log fluorescence [z-score]
CACGGTTTCCTTTCCCTGACGTGCTAG	5.1
TTTTTTTTGGAATGTCTTCCCGTGCTA	0.447
TTAGGTATCCTTCTCATTTAGTGCTAG	0.275
GGCGATTTCGGGACTGGAGACGTGCTA	-0.535
TGGTCTTTCTGTTTTCTCCAGTGCTAG	1.85
GGCGAACTGAGTCTCGAGACGTGCTAG	-0.0432
GACGGTTTCGGGTCTCGGGACGTGCTA	10.3
GAAGGTCTCGGTATCGGGACGTGCTAG	1.56
TTAGATAGCAGTCTCGATTAGTGCTAG	0.819
TTACGTTTCGACTTTCGGTTAGTGCTA	6.38
GTAGATATCAGTCTCGATTAGTGCTAG	1.16
GACGATCTCGGTATCGAGACGTGCTAG	0.442
TACGGTCTCCTTCTCCTGACGTGCTAG	0.417
TTAGGGCTCGGTATCGGTTAGTGCTAG	3.24
GACGGTCTCGGAATGGGGACGTGCTAG	1.62
GATATTATATCTGTGTTATTGTGCTAG	0.585
TGGAAACTCGTATGTGACCTTGTGCTA	-0.447
CTATGAAGTCATGTCTTCAGGTGCTAG	0.0352
GGAAATTCTCATTTCCAATTGTGCTAG	1.04
TTAGGTTTACTTCTCCTTTAGTGCTAG	0.705
GTAGGACTGCTACTGCTTTAGTGCTAG	-0.831
CATTTTCTGAATGTCCTCCTGTGCTAG	2.91
ATCTTCATGAAGTTTTAATAAGTGCTA	0.164
GTGTGTTTGTGTGTGTATGTGTGCTAG	-0.0179
GACGGTTCCCTTTTCCGGACGTGCTAG	2.9

Study 3
Target: Ras GTPase-activating protein-binding protein 1, RRM domain (G3BP1, Homo sapiens, UniProt Q13283)
UniProt Q13283, sequence (whole entry, looked up): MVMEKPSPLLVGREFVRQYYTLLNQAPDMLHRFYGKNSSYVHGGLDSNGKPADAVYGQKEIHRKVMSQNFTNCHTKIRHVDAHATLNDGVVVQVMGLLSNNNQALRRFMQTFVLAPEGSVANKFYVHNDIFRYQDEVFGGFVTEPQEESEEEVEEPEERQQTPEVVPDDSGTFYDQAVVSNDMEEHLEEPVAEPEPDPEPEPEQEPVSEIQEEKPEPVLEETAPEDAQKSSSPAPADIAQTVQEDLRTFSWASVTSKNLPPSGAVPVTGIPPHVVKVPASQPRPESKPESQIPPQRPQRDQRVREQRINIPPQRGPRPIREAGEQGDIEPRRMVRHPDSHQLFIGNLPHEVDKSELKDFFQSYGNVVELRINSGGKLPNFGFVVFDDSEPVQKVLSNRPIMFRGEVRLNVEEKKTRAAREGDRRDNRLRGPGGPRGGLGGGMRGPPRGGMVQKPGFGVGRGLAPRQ
Method: RNA Bind-n-Seq
Form: RNA
Sample: in vitro
Tested at: 1 µM
Notes: whole 134-nt RNA, ends assumed
Together with: 150 mM KCl
Reference: input library
Reading: higher = stronger binding
Shared flanks, not repeated: GGGAGUUCUACAGUCCGACGAUC … UGGAAUUCUCGGGUGUCAAGG
Oligonucleotide	log2 enrichment
ACCAUGCAGGUGGGCAUCUUUGGGAAGUGGGGCAAGGGGGGGAUAGGGAGCGGGGUAACACUUUGGGAACAGGUGGUCCCAGGUCGUUUC	0.996
CUGUGCUACACAUCGUAUGUACCGAAUCGGCCCCCCCGGGCCCCCCCGGGGCCCCCCCGGGAAAGUAUUAUGUUACGCCGUUCGGAUCUG	-0.616
GCAGGAAGUAAAAACAAAUGGAAAUGCUUCGGAUAGUGGCAGGGGUGGGGGUUGCUAAGGAAAGGGUGGGAUGGGAGUGGGGAAAGAGUU	0.683
GCAGGAAGUAAAAACACAUGGAAAUGCUUCGGAUAGUGGCAGGGGUGGGGGUUGCUAAGGAAAGGGUGGGAUGGGAGUGGGUAAAGAGUU	1.36
AAGUCCUGUGCUACACAUCGUAUGUACCGAAUCGGUUUUGGGUUUUGGGUUUUGGGGAAAGUAUUAUGUUACGCCGUUCGGAUCUGCACU	-0.0571
UAACUUUAGAGGAGGAUCUGAUGGAUAUGGCAGUGGACGUGGAUUUGGGGAUGGCUAUAAUGGGUAUGGAGGAGGACCUGGAGGUGGCAA	-0.345
AAGUCCUGUGCUACACAUCGUAUGUACCGAAUCGGUUUGGGGUUUGGGGUUUGGGGAAAGUAUUAUGUUACGCCGUUCGGAUCUGCACUU	-0.269
UGUGCUACACAUCGUAUGUACCGAAUCGGGGAAAAAAAGGGGAAAAAAAGGAAAAAAAGGGGAAAGUAUUAUGUUACGCCGUUCGGAUCU	0.222
UGGGAGGUGGAUUUUGUUUAUUUUUUUAGCUCAUUUCCAGGGGUGGGAAUUUUUUUUUAAUAUGUGUCGUGAAUAAAGUUGUUUUUGAAA	1.76
GUCCUGUGCUACACAUCGUAUGUACCGAAUCGGGAAAAGGGGAAAAGGGGAAAAGGGGAAAGUAUUAUGUUACGCCGUUCGGAUCUGCAC	0.528
UAACUAUAGAGGAGGAUCUGAUGGAUAUGGCAGUGGACGUGGAUUUGGGGAUGGCUAUAAUGGGUAUGGAGGAGGACCUGGAGGUGGCAA	-0.585
CUGUGCUACACAUCGUAUGUACCGAAUCGGGGAAAAAAAGGGGUUUGGGGAAAAAAAGGGGAAAGUAUUAUGUUACGCCGUUCGGAUCUG	0.75
UCAAGUCCUGUGCUACACAUCGUAUGUACCGAAUCGGAGGAAAAAAAGGAAAGGAAAGUAUUAUGUUACGCCGUUCGGAUCUGCACUUCC	-0.0911
UCCUGUGCUACACAUCGUAUGUACCGAAUCGGGAAAAAAAGGGAAAAAAAGGGUUUGGGAAAGUAUUAUGUUACGCCGUUCGGAUCUGCA	-0.0144

Study 4
Target: CCND3, cyclin fold, Cln2 fusion (human)
Method: yeast growth competition, sequencing
Sample: yeast
Notes: weak parent motif
Reference: not given
Reading: higher = stronger binding
Starting sequence: PKN2 docking peptide (human); VSAVQKLDFSDTM; partner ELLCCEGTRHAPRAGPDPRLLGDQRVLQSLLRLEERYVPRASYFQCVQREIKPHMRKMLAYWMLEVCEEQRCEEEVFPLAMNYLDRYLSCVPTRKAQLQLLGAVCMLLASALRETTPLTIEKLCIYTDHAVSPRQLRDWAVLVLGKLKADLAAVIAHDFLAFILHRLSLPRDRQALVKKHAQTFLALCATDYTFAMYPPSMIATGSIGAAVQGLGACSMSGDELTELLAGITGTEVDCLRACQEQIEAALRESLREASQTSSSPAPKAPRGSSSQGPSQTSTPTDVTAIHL
Change	normalised enrichment score
VQAVQKLDFSDTM [S2Q]	0.137
VSAVQKLCFSDTM [D8C]	0.112
VSADQKLDFSDTM [V4D]	0.00971
VSQVQKLDFSDTM [A3Q]	0.0864
VSAVQKLDFSDWM [T12W]	0.144
VSAVQKLDFSDCM [T12C]	0.193
VSNVQKLDFSDTM [A3N]	0.0616
VSAVQKLDFSDYM [T12Y]	0.18
VVAVQKLDFSDTM [S2V]	0.113
VSAVQKCDFSDTM [L7C]	0.0617
VSATQKLDFSDTM [V4T]	0.0678
VSAVQKLDFSDIM [T12I]	0.113
VSAVQKLDISDTM [F9I]	0.113
VSAVQKLDYSDTM [F9Y]	0.131
VSAVQKLDRSDTM [F9R]	0.177
VSAVQKPDFSDTM [L7P]	0.0866
VSKVQKLDFSDTM [A3K]	0.0246
VSAVQKLHFSDTM [D8H]	0.11
VSAVQKLDFSDTC [M13C]	0.156
VSAVQKGDFSDTM [L7G]	0.0547
VSAVQKLDFSDGM [T12G]	0.139
VSMVQKLDFSDTM [A3M]	0.0859
VSAVQKLDGSDTM [F9G]	0.14
VSAVQKLDFNDTM [S10N]	0.0399
VSAVQKLDCSDTM [F9C]	0.0714

Study 5
Target: Sal-like protein 4, full length isoform A (SALL4, Homo sapiens, UniProt Q9UJQ4, residues 1-1053)
UniProt Q9UJQ4, sequence (whole entry, looked up): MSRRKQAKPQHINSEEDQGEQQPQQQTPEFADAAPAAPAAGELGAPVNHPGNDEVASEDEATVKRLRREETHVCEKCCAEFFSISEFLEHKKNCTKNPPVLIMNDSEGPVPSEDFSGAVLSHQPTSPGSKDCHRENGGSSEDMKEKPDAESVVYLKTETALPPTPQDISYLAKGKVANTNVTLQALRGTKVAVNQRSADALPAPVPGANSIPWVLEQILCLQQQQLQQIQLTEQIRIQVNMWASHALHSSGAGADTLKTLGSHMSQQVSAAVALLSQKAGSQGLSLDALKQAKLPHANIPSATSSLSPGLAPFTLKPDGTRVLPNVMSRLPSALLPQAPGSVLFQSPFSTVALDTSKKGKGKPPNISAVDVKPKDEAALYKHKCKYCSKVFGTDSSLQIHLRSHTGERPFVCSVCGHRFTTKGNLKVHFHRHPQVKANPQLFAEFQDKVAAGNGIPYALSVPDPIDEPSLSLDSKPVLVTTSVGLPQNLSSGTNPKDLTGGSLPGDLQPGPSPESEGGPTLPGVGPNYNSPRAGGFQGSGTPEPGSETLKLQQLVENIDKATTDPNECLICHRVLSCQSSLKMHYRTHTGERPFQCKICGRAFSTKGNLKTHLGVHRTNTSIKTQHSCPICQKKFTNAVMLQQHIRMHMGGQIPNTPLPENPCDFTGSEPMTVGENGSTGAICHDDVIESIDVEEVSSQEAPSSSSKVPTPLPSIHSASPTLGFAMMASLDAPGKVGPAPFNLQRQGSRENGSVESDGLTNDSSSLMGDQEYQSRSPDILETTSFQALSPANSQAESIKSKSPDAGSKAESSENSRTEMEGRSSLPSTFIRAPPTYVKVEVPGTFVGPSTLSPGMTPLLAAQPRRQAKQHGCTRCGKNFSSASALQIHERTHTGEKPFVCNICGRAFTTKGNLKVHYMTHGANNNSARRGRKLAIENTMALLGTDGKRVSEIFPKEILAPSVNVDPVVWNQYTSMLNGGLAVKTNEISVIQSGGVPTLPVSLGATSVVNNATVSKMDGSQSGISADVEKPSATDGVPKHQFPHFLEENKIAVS
Method: universal PBM
Form: double-stranded DNA, one strand shown
Sample: in vitro
Tested at: 600 nM
Notes: 8-mer, flanks averaged, mean of replicates
Reading: higher = stronger binding
Oligonucleotide	E-score
AATACTGC	0.117
CACTCACC	-0.119
ACAGGTCT	-0.0899
GATCTGAA	-0.0671
CCCCCTAC	-0.278
GCTGAAGC	-0.175
CTGAGGAC	-0.0901
CGATGGTA	-0.0333
ATGAGGTC	-0.137
AGTATGAG	0.23
AGCCAACG	-0.0267
AACCTTGA	0.00838
AGTTGCCA	-0.157
AGAGGCGA	-0.151
TCCCGGAA	-0.108
CAACGACG	-0.133
ACTGGAAC	-0.0706
ATTTCACG	0.101
CGTCCCAG	-0.221
GTTCTAGA	0.0512
ACTCGCCG	-0.18
TCAATACA	0.261
CGTGACGC	-0.0621
CGCTCCGC	-0.288
CAACATTG	0.184

Some of these lines once more (study 4):
Change	normalised enrichment score
VSAVQKLDFSDWM [T12W]	0.144
VSAVQKLDFSDCM [T12C]	0.193
VSNVQKLDFSDTM [A3N]	0.0616
VSAVQKLDFSDYM [T12Y]	0.18
VVAVQKLDFSDTM [S2V]	0.113
VSAVQKCDFSDTM [L7C]	0.0617
VSATQKLDFSDTM [V4T]	0.0678
VSAVQKLDFSDIM [T12I]	0.113
VSAVQKLDISDTM [F9I]	0.113
VSAVQKLDYSDTM [F9Y]	0.131
